# Published values of several laboratories.
# Every numbered part comes from another study and shows a few of its results, in no order.

# Sample 1 — technique: RNA Bind-n-Seq; form: RNA; sample: in vitro; concentration: 365 nM; baseline: no-protein control; direction: higher = stronger binding
# Target: RNA binding protein fox-1 homolog 2, RRM domain, GST-SBP tag (RBFOX2, Homo sapiens, UniProt O43251-10, residues 100-194)
# Notes: natural RNA segment, single round, ends assumed
Sequence,RBNS enrichment (R)
GGGAGUUCUACAGUCCGACGAUCCACCAGCCACACAGCGGUAGGGAUGAAAUAGUGACAUAAUAUAUUCUAUUUUUGUAACCUUCCUAUUUUGUAGCUCUGUUUAGAGAGAUGCUGGUUUUUGCCUGAAGGCCUGGAAUUCUCGGGUGCCAA,0.55
GGGAGUUCUACAGUCCGACGAUCAGCUCUGUUACCCUGAGAACACCAGAGCUCCCCUUGUCUCCCUCUCUCUCUCAUCCAGGGUCCCUGCCUGACCCACCAGUUGCUCGUGAGCUGCACAGUUCAGAUGAGACUGGAAUUCUCGGGUGCCAA,0.69
GGGAGUUCUACAGUCCGACGAUCGGCCUGGGGGGGAUGGUAUAUGGCCCUUUCCCCACCAGGCGCUAAGGGGAACACCCCCUUCCCCAGGUCUUUUAUUUGUUUAAGUUAUUUUUGCACAAAUGACUCUUUUAUGGAAUUCUCGGGUGCCAA,0.405

# Sample 2 — technique: protein binding microarray; form: double-stranded DNA, one strand shown; sample: in vitro; concentration: not given; baseline: not given; direction: higher = stronger binding
# Target: Histone acetyltransferase KAT6A, winged helix 1, GST fusion (KAT6A, Homo sapiens, UniProt Q92794, residues 1-85)
# Notes: 8-mer, flanks averaged, mean of 2 arrays, mostly near background
# Residues (chain): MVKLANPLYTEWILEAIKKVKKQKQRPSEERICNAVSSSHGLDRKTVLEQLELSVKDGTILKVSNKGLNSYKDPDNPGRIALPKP
Sequence,E-score
CACGTTGA,-0.178
TACCCTGA,-0.01
ATCACCTC,-0.0858
GTGAGTGA,-0.0963

# Mixed results
# G3BP1 full length: Ras GTPase-activating protein-binding protein 1, full length (G3BP1, Homo sapiens, UniProt Q13283)
# Chain of UniProt Q13283 (whole entry, looked up): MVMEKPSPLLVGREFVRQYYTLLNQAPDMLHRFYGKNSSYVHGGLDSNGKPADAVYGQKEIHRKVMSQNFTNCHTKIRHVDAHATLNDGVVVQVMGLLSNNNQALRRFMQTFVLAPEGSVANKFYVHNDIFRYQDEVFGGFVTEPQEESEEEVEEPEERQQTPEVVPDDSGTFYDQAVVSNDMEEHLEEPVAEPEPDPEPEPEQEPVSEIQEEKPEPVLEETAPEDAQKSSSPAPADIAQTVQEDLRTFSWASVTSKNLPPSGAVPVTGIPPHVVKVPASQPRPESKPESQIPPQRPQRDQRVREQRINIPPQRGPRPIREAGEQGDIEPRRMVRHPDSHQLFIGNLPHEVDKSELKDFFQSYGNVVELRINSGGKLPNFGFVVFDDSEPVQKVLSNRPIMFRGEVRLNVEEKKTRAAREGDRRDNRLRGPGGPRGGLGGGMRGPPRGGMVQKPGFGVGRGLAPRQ
Molecule,target,test,system,conditions,scale,measurement,result
GGGAGUUCUACAGUCCGACGAUCACCAUGCAGGUGGGCAUCUUUGGGAAGUGGGGCAAGGGGGGGAUAGGGAGGGGGGUAACACUUUGGGAACAGGUGAUCCCAGGUCGUUUCUGGAAUUCUCGGGUGUCAAGG,G3BP1 full length,RNA Bind-n-Seq,"RNA, in vitro","200 nM, whole 134-nt RNA, ends assumed, together with: 150 mM KCl","baseline: input library, higher = stronger binding",log2 enrichment,1.53
"PhoQ, residues 284 288 289 292 302 303 AGCYAI","PhoP, residues 12 14 15 18 19 SGWQI (Escherichia coli, UniProt P23836)","Sort-seq, item: YFP reporter",E. coli,"PhoQ-PhoP variant library, together with: 10 µM Mg2+","baseline: high Mg2+ state, higher = stronger signaling",fold induction,1.74
GGGAGUUCUACAGUCCGACGAUCGCAGGAAGUAAAAAAAAAUGGAAAUGCUUCGGAUAGUGGCAGGGGUGGGGGUUGCUAAGGAAAGGGUGGGAUGGGAGUGGGUAAAGAGUUUGGAAUUCUCGGGUGUCAAGG (7-deaza-guanosine replaces G),G3BP1 full length,RNA Bind-n-Seq,"RNA, in vitro","200 nM, whole 134-nt RNA, ends assumed, together with: 150 mM LiCl","baseline: input library, higher = stronger binding",log2 enrichment,-0.168
GGGAGUUCUACAGUCCGACGAUCCCUCAAGUCCUGUGCUACACAUCGUAUGUACCGAAUCGGUGGAGGAAAAAGGAAAGUAUUAUGUUACGCCGUUCGGAUCUGCACUUCCAGUGGAAUUCUCGGGUGUCAAGG,G3BP1 full length,RNA Bind-n-Seq,"RNA, in vitro","200 nM, whole 134-nt RNA, ends assumed, together with: 150 mM KCl","baseline: input library, higher = stronger binding",log2 enrichment,-0.0889

# Excerpt of the above (sample 2):
Sequence,E-score
CACGTTGA,-0.178
